# Measured values gathered from unrelated publications.
# Compare with care: the assays were run in different laboratories.
# Technique: steady-state kinetics
# B1: enzyme (Mortierella alpina, UniProt U5Y6A8); chain MAPPHVVDEQVRRRIVVEDEIQSKKQFERNYVPMDFTIKEIRDAIPAHLFIRDTTKSILHVVKDLVTIAIVFYCATFIETLPSLALRVPAWITYWIIQGTVMVGPWILAHECGHGAFSDSKTINTIFGWVLHSALLVPYQAWAMSHSKHHKGTGSMSKDVVFIPATRSYKGLPPLEKPAAEEEVLEQEHHHHEESIFAETPIYTLGALFFVLTLGWPLYLIMNFSGHEAPHWVNHFQTVAPLYEPHQRKNIFYSNCGIVAMGSILTYLSMVFSPLTVFMYYGIPYLGVNAWIVCITYLQHTDPKVPHFRDNEWNFQRGAACTIDRSFGTIVNHLHHHIGDSHQCHHMFSQMPFYNAVEATKHLKAKLGKYYIFDDTPIAKALYRNWRECKFVEDEGDVVFYKH
# B2: ycjS (Escherichia coli, UniProt P77503); chain MKSAMTSSPLRVAIIGAGQVADKVHASYYCTRNDLELVAVCDSRLSQAQALAEKYGNASVWDDPQAMLLAVKPDVVSVCSPNRFHYEHTLMALEAGCHVMCEKPPAMTPEQAREMCDTARKLGKVLAYDFHHRFALDTQQLREQVTNGVLGEIYVTTARALRRCGVPGWGVFTNKELQGGGPLIDIGIHMLDAAMYVLGFPAVKSVNAHSFQKIGTQKSCGQFGEWDPATYSVEDSLFGTIEFHNGGILWLETSFALNIREQSIMNVSFCGDKAGATLFPAHIYTDNNGELMTLMQREIADDNRHLRSMEAFINHVQGKPVMIADAEQGYIIQQLVAALYQSAETGTRVEL
# B3: ASRGL1 (Homo sapiens, UniProt Q7L266); chain 1 MNPIVVVHGGGAGPISKDRKERVHQGMVRAATVGYGILREGGSAVDAVEGAVVALEDDPEFNAGCGSVLNTNGEVEMDASIMDGKDLSAGAVSAVQCIANPIKLARLVMEKTPHCFLTDQGAAQFAAAMGVPEIPGEKLVTERNKKRLEKEKHEKGAQKTDCQKNLG; chain 2 TVGAVALDCKGNVAYATSTGGIVNKMVGRVGDSPCLGAGGYADNDIGAVSTTGHGESILKVNLARLTLFHIEQGKTVEEAADLSLGYMKSRVKGLGGLIVVSKTGDWVAKWTSTSMPWAAAKDGKLHFGIDPDDTTITDLP
# B4: sacB Y196F (Priestia megaterium, UniProt D5DC07); chain KGNDSKDFNNSYGISHITRDNMVKIPQQQNSDQFKVPAFDESTIKNIASAKGKNASGNTIDLDVWDSWPLQNADGTVATYHGYQIVFALAGDPKDSNDTSVYLFYKKAGDKSIDSWKNAGRVFKDSDKFVPNDPHLKNQTQEWSGSGTLTKDGKVRLFYTDYSGKQFGKQTLTTAQVNMSQPNDNTLKVDGVEDYKSIFDGDGKIYQTVQQFIDEGGYDTGDNHTLRDPHYIEDNGHKYLVFEANTGTEDGYQGEDSLYNRAYYGGNNPFFQSEKKKLLEGSNKEKASLANGALGIIELNDDYTLKKVMKPLITSNTVTDEIERANIFKKDGKWYLFTDSRGSKMTIDGIGQDDVYMLGYVSNTLTGKYKPLNDTGLVLHMDLDPNDKTFTYSHFAVPQTKGDNVVITSYMTNRGFYEDNHSTFAPSFLVNIDGSKTSVVKDRVLEQGQLTVDED
# B5: RbgA (Bacillus subtilis, UniProt O31743); chain MTIQWFPGHMAKARREVTEKLKLIDIVYELVDARIPMSSRNPMIEDILKNKPRIMLLNKADKADAAVTQQWKEHFENQGIRSLSINSVNGQGLNQIVPASKEILQEKFDRMRAKGVKPRAIRALIIGIPNVGKSTLINRLAKKNIAKTGDRPGITTSQQWVKVGKELELLDTPGILWPKFEDELVGLRLAVTGAIKDSIINLQDVAVFGLRFLEEHYPERLKERYGLDEIPEDIAELFDAIGEKRGCLMSGGLINYDKTTEVIIRDIRTEKFGRLSFEQPTM
# B6: carbamoyl phosphate synthetase large subunit L648E (Escherichia coli, UniProt P00968); chain PKRTDIKSILILGAGPIVIGQACEFDYSGAQACKALREEGYRVILVNSNPATIMTDPEMADATYIEPIHWEVVRKIIEKERPDAVLPTMGGQTALNCALELERQGVLEEFGVTMIGATADAIDKAEDRRRFDVAMKKIGLETARSGIAHTMEEALAVAADVGFPCIIRPSFTMGGSGGGIAYNREEFEEICARGLDLSPTKELLIDESLIGWKEYEMEVVRDKNDNCIIVCSIENFDAMGIHTGDSITVAPAQTLTDKEYQIMRNASMAVLREIGVETGGSNVQFAVNPKNGRLIVIEMNPRVSRSSALASKATGFPIAKVAAKLAVGYTLDELMNDITGGRTPASFEPSIDYVVTKIPRFNFEKFAGANDRLTTQMKSVGEVMAIGRTQQESLQKALRGLEVGATGFDPKVSLDDPEALTKIRRELKDAGADRIWYIADAFRAGLSVDGVFNLTNIDRWFLVQIEELVRLEEKVAEVGITGLNADFLRQLKRKGFADARLAKLAGVREAEIRKLRDQYDLHPVYKRVDTCAAEFATDTAYMYSTYEEECEANPSTDREKIMVLGGGPNRIGQGIEFDYCCVHASLALREDGYETIMVNCNPETVSTDYDTSDRLYFEPVTLEDVLEIVRIEKPKGVIVQYGGQTPEKLARALEAAGVPVIGTSPDAIDRAEDRERFQHAVERLKLKQPANATVTAIEMAVEKAKEIGYPLVVRPSYVLGGRAMEIVYDEADLRRYFQTAVSVSNDAPVLLDHFLDDAVEVDVDAICDGEMVLIGGIMEHIEQAGVHSGDSACSLPAYTLSQEIQDVMRQQVQKLAFELQVRGLMNVQFAVKNNEVYLIEVNPRAARTVPFVSKATGVPLAKVAARVMAGKSLAEQGVTKEVIPPYYSVKEVVLPFNKFPGVDPLLGPEMRSTGEVMGVGRTFAEAFAKAQLGSNSTMKKHGRALLSVREGDKERVVDLAAKLLKQGFELDATHGTAIVLGEAGINPRLVNKVHEGRPHIQDRIKNGEYTYIINTTSGRRAIEDSRVIRRSALQYKVHYDTTLNGGFATAMALNADATEKVISVQEMHAQIK
# B7: protein Y93D (Thermus thermophilus, UniProt Q5SKR5); chain MSAPKPFVIGIAGGTASGKTTLAQALARTLGERVALLPMDHYYKDLGHLPLEERLRVNYDHPDAFDLALYLEHAQALLRGLPVEMPVYDFRADTRSPRRTPVRPAPVVILEGILVLYPKELRDLMDLKVFVDADADERFIRRLKRDVLERGRSLEGVVAQYLEQVKPMHLHFVEPTKRYADVIVPRGGQNPVALEMLAAKALARLARMGAA
# B8: enzyme (Triticum aestivum, UniProt A0A6J4BJN3); chain MPATENAAGEAWDRRRELQAFDDTKAGVKGLVDAGVTALPPIFRHSPESLEGITSSNHDAAAIPTVDLSAARREDTVALVRRAAATVGFFQVVNHGVPAELMAGMLEAVRRFNEGPAEAKQAIYSRDQARKVRFASNFDLFSSAAANWRDTLFFHLAPDPAPSQDLPEAVRDVVTEYGKAVTKVALSVLELLSESLGLSSDHLRDMGCAENLNAVCQYYPPCPEPYLTWGTKRHTDPGFLTVLLQDGMGGLQVLVDRKTWVDVPPVPGAFIINIGDLLQLVSNDQFRSVEHRVLANKSKDTARVSVASFFNTDMERSTRLYGPITDGRNPPIYRSVTARDFIATFNRIGLDGRSLDHYRLDQDTPAHAVEGSE
# B9: FPPS (Aedes aegypti, UniProt Q17F78); chain MLSTLIRAGSLQTMGRQFARSVETPVQMQHARFISKSSEVNSDYMTMRENQTQKVSRDYNSKLQVRLKKVSRTLSTLNNSIPEAASQTIVTKSDAREFMAVFPDLVRDLTEYCKKYDNTLAPKWFVKALQYNVPQGKKNRGLAAVLAYRMLSKSEDLTPENIRRAHYLGWVIEMFQAVFLICDDAMDGSQTRRGQPCWYKLEDVKLSGINDALMIDAAIFYVLKKQFGDEPYYSKLVETFNEIKFITTIGQSLDLRSARMDVTKYTMDLYKSIVCHKTAYYTFYLPVALAMHMTGFTDPEVFRQTKTILLEIGLFYQTQDDFLDCFGDPAVTGKIGTDIEEGKCTWLSVVAMQRASDEQKELMKQCYGSSDPEKVARVKKLYEELGLPTTYAIYEEESYNMIKTHIQQISRGLPHELFFKIMEKIYRRDC
# Sequence of UniProt Q8QZR1 (whole entry, looked up): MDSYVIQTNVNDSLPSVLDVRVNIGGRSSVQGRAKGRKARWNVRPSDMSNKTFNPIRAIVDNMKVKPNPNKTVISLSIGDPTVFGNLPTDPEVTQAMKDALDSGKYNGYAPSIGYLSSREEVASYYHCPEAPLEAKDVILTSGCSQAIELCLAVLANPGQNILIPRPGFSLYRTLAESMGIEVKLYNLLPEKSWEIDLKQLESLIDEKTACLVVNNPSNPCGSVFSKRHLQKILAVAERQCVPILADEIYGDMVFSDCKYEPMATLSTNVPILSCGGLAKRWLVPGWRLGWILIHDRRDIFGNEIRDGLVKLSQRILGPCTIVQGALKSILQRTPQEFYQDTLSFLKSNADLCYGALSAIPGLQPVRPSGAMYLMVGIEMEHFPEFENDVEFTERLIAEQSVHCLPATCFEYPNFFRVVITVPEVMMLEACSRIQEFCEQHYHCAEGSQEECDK
# Sequence of UniProt Q6WZB0 (whole entry, looked up): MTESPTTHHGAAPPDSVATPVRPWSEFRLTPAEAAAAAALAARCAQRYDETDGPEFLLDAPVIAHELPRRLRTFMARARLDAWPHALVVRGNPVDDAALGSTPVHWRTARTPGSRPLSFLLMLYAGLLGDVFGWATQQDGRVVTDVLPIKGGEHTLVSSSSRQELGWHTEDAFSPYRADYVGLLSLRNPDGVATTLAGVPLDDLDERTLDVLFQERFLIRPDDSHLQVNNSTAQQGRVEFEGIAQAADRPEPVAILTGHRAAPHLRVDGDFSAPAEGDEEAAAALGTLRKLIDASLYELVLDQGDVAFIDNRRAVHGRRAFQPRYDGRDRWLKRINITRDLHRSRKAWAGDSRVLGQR
Molecule,substrate,conditions,Km [µM]
"enzyme (Mus musculus, UniProt P08680)",CC(C)(COP(=O)(O)OP(=O)(O)OC[C@H]1O[C@@H](n2cnc3c(N)ncnc32)[C@H](O)[C@@H]1OP(=O)(O)O)[C@@H](O)C(=O)NCCC(=O)NCCSC(=O)CCC(=O)O,"pH 7.5, 37 °C",1
B1 (enzyme),CCCCC/C=C\C/C=C\CCCCCCCC(=O)SCCNC(=O)CCNC(=O)[C@H](O)C(C)(C)COP(=O)(O)OP(=O)(O)OC[C@H]1O[C@@H](n2cnc3c(N)ncnc32)[C@H](O)[C@@H]1OP(=O)(O)O,"pH 7.5, 28 °C",15.9
"Tat (Mus musculus, UniProt Q8QZR1)",O=C(O)C(=O)Cc1ccccc1,"pH 7, 38 °C, with: PLP",900
B2 (ycjS),OC[C@H]1OC[C@H](O)[C@@H](O)[C@@H]1O,"pH 8, 30 °C, with: NAD+ 2.0 mM",2100
"protein (Candidatus Protochlamydia amoebophila, UniProt A0A2P9HA01)",Nc1nc2c(ncn2[C@H]2C[C@H](O)[C@@H](COP(=O)(O)OP(=O)(O)OP(=O)(O)O)O2)c(=O)[nH]1,"pH 7, 30 °C, transporter, labelled substrate, apparent, not purified",121
B3 (ASRGL1),COC(=O)[C@H](Cc1ccccc1)NC(=O)C[C@H](N)C(=O)O,"pH 7.4, 37 °C, NaCl 100 mM",1600
B4 (sacB Y196F),OC[C@H]1O[C@@](CO)(O[C@H]2O[C@H](CO)[C@@H](O)[C@H](O)[C@H]2O)[C@@H](O)[C@@H]1O,pH 6.9,29800
B5 (RbgA),Nc1nc2c(ncn2[C@@H]2O[C@H](COP(=O)(O)OP(=O)(O)OP(=O)(O)O)[C@@H](O)[C@H]2O)c(=O)[nH]1,"pH 7.5, 37 °C, KCl 200 mM, free enzyme, apparent, with: GTP 0-1 mM",82.8
"vioC (Streptomyces vinaceus, UniProt Q6WZB0)",N=C(N)NCCCC[C@H](N)C(=O)O,"pH 8, 30 °C, with: alpha-ketoglutarate 1.0 mM",7050
B6,Nc1ncnc2c1ncn2[C@@H]1O[C@H](COP(=O)(O)OP(=O)(O)OP(=O)(O)O)[C@@H](O)[C@H]1O,"pH 7.6, KCl 100 mM, with: glutamine 10 mM, ornithine 10 mM",1200
B7 (protein Y93D),Nc1ccn([C@@H]2O[C@H](CO)[C@@H](O)[C@H]2O)c(=O)n1,"pH 7.2, 25 °C, KCl 100 mM, with: ATP 100–200 µM",236
B8 (enzyme),O=C1[C@@H](O[C@@H]2O[C@H](CO)[C@@H](O)[C@H](O)[C@H]2O)Oc2ccccc2N1O,"pH 7.2, 30 °C",104
B9 (FPPS),CC(C)=CCOP(=O)(O)OP(=O)(O)O,"pH 7.5, 37 °C, with: IPP 100 µM, Mg2+ 5 mM",54.8

# A few entries again:
Molecule,substrate,conditions,Km [µM]
B4 (sacB Y196F),OC[C@H]1O[C@@](CO)(O[C@H]2O[C@H](CO)[C@@H](O)[C@H](O)[C@H]2O)[C@@H](O)[C@@H]1O,pH 6.9,29800
